Assay results pooled from the literature.
Values joined by “and” are separate records of one study, mostly repeats; a detail may differ. ± gives the spread as reported.

Molecule = aspterric acid; test = hypocotyl length; system = Arabidopsis thaliana Col-0 seeds; conditions = 6.25 µg/mL, seed germination; how to read = relative to: water control; measurement = inhibition; value = 69.5%
Molecule = HVLVMSATRR; system = peptide, C57BL/6J mice, male, serum; conditions = subcutaneous osmotic pump, 3 mg/kg/day peptide basis, 8 weeks; measurement = phosphorus; value = 8 mg/dL and 8.7 mg/dL and 6.9 mg/dL
Molecule = GWTLNSAGYLLGPRRIDHLLMIKEMPIARGREEAPGA / YAVDNHRSFNDKHGFT-NH2 (C-amide); system = Gnaq intestinal cKO mice, DSS colitis; conditions = ip, 3 µM, 2% DSS; measurement = colon length; value = 5.9 cm and 5.2 cm and 5.1 cm and 6 cm and 5.7 cm
Molecule = hexaarginine; tested on = PorA peptide pore; test = peptide binding, planar bilayer single-channel recording; conditions = 0.5 µM, pH 7.4, -15 mV, cis side, 150 mM KCl; measurement = kon; value = 26 ± 3 µM⁻¹ s⁻¹
Molecule = mycosubtilin; test = calcein leakage; system = DOPC/DOPG/CHOL liposomes; conditions = concentration not given, with: 40 mM CaCl2; measurement = leakage time constant; value = 7 ± 4 min
Molecule = CRQLRKGKFFSEGGSGGTSFEQFWAWLWP; test = flow cytometry; system = peptide, Renca syngeneic tumour, mouse; conditions = 2.5 mg/kg, 10 days; measurement = CD8+ T cells in tumour-infiltrating lymphocytes; value = 25.1%
Molecule = CLCKKGKCGLCGK; test = absorbance at 734 nm; system = peptide; conditions = 1 mg/mL, 5 min, room temperature; measurement = ABTS radical scavenging; value = 0.928 fraction (0-1)
Molecule = nonaarginine; tested on = PorA peptide pore; test = peptide binding, planar bilayer single-channel recording; conditions = pH 7.4, -35 mV, cis side, 150 mM KCl; measurement = Kd; value = 6.8 ± 0.7 µM
Molecule = GWTLNSAGYLLGPHAVDNHRSFNDKHGFT-NH2 (C-amide); test = RT-qPCR, measured: Ccl3; system = peptide, mouse, DSS-induced colitis, colon; conditions = ip, 3 µM, 3% DSS, unit not given; how to read = relative to: Gapdh; measurement = mRNA level; value = 1.39 and 0.981 and 1.34 and 0.22 and 0.648
Molecule = Met-enkephalin-Arg-Phe; test = antinociception, tail-flick; system = male ICR-CD1 mice; conditions = intracerebroventricular, 50 µg/animal, 30 min; measurement = maximum possible effect; value = 1.08% and 27.5% and 14.7% and -9.46% and 6.73% and 9.58% and 19.8% and 5.15%
Molecule = insulin human; test = measured: MAPK14 mRNA; system = uninfected mouse, brain; conditions = i.p., dose not given; how to read = relative to: PBS; measurement = fold change; value = 1.21
Molecule = fengycin; test = calcein leakage; system = DOPC/DOPG/CHOL liposomes; conditions = concentration not given, with: 20 wt% PEG-8000; measurement = leakage time constant; value = 15 ± 2 min
Molecule = heparin sodium; test = measured: Diarrhea; system = human healthy Chinese adults; conditions = intravenous infusion, 8 IU/kg/h, 5 days; measurement = subjects with adverse event; value = 0%
